Measured values collected from several papers.
Values joined by “and” are separate records of one study, mostly repeats; a detail may differ. ± gives the spread as reported.
UniProt P30536, sequence (whole entry, looked up): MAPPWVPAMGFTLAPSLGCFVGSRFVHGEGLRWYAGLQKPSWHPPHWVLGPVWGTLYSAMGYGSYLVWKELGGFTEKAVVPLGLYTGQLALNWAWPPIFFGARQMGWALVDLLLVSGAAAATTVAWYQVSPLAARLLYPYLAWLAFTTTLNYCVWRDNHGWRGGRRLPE
UniProt Q14315, sequence (whole entry, looked up): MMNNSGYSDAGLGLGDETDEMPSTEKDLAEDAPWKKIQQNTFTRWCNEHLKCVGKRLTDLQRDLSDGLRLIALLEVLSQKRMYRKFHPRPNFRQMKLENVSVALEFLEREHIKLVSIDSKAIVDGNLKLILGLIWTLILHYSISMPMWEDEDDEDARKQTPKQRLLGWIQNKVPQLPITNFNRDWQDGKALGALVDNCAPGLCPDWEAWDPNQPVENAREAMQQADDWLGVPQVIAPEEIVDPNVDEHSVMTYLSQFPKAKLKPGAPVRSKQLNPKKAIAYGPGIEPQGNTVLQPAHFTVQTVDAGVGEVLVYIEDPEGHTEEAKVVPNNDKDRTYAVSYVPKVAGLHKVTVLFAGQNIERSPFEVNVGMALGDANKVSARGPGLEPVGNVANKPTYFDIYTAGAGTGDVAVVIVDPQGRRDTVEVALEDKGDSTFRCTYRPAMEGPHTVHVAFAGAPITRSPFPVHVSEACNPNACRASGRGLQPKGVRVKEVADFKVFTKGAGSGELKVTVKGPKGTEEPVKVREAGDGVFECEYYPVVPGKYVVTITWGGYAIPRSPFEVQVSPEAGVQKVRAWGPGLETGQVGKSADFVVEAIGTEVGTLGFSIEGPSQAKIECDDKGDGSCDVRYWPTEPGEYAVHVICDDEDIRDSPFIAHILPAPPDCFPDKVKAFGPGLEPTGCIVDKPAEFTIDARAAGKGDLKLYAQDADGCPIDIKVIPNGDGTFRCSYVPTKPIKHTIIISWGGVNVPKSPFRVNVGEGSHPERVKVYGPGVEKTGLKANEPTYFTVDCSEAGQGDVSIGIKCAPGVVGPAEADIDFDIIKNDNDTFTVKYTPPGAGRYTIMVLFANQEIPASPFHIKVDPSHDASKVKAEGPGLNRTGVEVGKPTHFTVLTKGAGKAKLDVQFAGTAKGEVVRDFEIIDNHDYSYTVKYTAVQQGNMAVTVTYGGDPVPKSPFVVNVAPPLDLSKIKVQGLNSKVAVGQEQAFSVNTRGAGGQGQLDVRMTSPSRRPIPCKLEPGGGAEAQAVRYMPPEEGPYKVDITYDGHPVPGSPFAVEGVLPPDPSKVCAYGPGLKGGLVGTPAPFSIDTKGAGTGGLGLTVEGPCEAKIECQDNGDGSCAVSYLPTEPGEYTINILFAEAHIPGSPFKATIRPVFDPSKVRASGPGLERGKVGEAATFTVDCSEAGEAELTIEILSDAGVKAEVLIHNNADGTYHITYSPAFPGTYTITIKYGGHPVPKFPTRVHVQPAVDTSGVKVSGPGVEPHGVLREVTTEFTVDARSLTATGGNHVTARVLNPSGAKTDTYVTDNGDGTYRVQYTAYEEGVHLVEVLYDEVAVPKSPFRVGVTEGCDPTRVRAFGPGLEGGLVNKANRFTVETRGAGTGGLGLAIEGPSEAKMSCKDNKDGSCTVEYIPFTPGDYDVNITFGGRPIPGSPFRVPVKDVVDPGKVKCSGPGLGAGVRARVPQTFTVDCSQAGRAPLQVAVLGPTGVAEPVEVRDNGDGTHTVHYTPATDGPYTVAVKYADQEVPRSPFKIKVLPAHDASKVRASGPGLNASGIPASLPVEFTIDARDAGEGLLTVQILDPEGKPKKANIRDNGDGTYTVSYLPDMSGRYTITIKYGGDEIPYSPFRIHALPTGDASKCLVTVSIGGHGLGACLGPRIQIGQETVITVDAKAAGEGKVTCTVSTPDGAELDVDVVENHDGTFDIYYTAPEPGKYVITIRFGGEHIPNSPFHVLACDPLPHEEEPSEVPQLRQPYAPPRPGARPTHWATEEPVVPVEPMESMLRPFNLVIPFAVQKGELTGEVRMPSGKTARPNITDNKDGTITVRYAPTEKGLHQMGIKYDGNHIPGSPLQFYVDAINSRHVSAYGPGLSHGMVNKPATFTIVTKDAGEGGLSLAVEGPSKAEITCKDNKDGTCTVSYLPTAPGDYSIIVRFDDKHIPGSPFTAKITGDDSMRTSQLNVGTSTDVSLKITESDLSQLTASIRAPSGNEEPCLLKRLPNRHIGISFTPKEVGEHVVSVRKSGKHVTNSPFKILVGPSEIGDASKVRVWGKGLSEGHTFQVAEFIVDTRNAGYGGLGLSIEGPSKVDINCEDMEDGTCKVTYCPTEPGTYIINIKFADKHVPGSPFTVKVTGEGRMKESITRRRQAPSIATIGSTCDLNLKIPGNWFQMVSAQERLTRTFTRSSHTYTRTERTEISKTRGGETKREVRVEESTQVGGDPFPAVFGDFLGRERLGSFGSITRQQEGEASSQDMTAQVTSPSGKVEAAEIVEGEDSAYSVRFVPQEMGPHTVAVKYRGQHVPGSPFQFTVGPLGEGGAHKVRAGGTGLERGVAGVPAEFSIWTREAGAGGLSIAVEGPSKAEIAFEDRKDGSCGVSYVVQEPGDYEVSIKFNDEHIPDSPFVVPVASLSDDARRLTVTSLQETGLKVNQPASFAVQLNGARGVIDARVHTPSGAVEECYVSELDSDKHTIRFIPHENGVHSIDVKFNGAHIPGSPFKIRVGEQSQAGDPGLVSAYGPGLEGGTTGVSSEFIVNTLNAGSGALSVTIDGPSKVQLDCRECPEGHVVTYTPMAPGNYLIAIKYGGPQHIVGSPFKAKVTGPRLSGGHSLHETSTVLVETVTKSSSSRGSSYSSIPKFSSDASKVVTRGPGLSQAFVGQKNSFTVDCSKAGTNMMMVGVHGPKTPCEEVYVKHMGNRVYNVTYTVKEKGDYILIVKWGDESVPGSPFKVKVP
UniProt Q6PCB6, sequence (whole entry, looked up): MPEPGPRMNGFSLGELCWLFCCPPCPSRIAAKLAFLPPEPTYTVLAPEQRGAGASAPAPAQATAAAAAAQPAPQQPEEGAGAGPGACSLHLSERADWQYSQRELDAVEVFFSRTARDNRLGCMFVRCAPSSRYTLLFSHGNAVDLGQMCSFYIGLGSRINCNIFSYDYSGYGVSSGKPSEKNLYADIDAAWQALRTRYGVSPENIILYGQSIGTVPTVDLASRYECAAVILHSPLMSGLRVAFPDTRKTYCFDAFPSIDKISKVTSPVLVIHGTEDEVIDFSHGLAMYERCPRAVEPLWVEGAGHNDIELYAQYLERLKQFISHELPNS

Compound	tested on	assay	system	conditions	how to read	measurement	value
CC[C@H](C)[C@@H]1NC(=O)[C@@H]2CCCN2C(=O)[C@H](CC(C)C)NC(=O)[C@H](CC(C)C)NC(=O)CNC(=O)[C@@H](NC(=O)[C@@H](NC(=O)[C@H](CC(=O)O)NC(=O)CNC(=O)[C@@H](NC(=O)[C@H](C)NC(=O)CNC(=O)[C@H](CCCCN)NC(=O)[C@H](CC(C)C)NC(=O)[C@H](CC(C)C)NC(=O)[C@H](CCCCN)NC(=O)CNC(=O)[C@@H](NC(=O)[C@@H](N)CC(C)C)C(C)C)C(C)C)C(C)C)CSSC[C@@H](C(=O)O)NC1=O		RNA-seq, measured: Cxcr5	mouse, traumatic brain injury model, frontal cortex and hippocampus	dose not given	reference: TBI alone	log2 fold change	-4.04
COc1cccc(Oc2ccccc2NC(=O)CNC(=O)c2cccc3ccccc23)c1			esterase-deficient SCID mice, male	oral, 40 mg/kg/day, 14 days, toxicity study		serum phosphorus	9.9 mg/dL and 9.8 mg/dL and 10 mg/dL
CN[C@@H](C)C(=O)N[C@H]1CN(S(=O)(=O)c2cccc(S(=O)(=O)N3CC[C@H]4CC[C@@H](C(=O)NC(c5ccccc5)c5ccccc5)N4C(=O)[C@@H](NC(=O)[C@H](C)NC)C3)c2)CC[C@H]2CC[C@@H](C(=O)NC(c3ccccc3)c3ccccc3)N2C1=O			patients with advanced solid tumours	30 mg, phase I monotherapy		treatment-related pruritus incidence	0%
C[C@@H](O)[C@@H](CO)NC(=O)[C@@H](CCCNC(=N)N)NC(=O)[C@@H]1CCCN1C(=O)[C@@H]1CSSC[C@H](NC(=O)[C@H](Cc2ccccc2)NC(=O)CN2CCN(CC(=O)O)CCN(CC(=O)O)CCN(CC(=O)O)CC2)C(=O)N[C@@H](Cc2ccc(O)cc2)C(=O)N[C@@H](Cc2ccccc2)C(=O)N[C@@H](CCC(N)=O)C(=O)N[C@@H](CC(N)=O)C(=O)N1 [gallium-68 labelled]			healthy Wistar rat, blood	intravenous, 8 MBq, 30 min, individual animals		tissue uptake	1.61 %ID/g
C[C@]1(CO)Cc2ncn(-c3ccc(C#N)c(Cl)c3)c2C(=O)O1			human	80 mg single dose		subjects with drug-related headache	0%
CN1CC[C@@H](c2c(O)cc(O)c3c(=O)cc(-c4ccc(C(F)(F)F)cc4Cl)oc23)[C@@H]1CO		measured: Dizziness	AML	oral, 200 mg, intermittent dosing		patients with adverse event	10%
C=C(CN(C(=O)c1c(C(F)F)nn(C)c1F)C1CC1)c1ccc(Cl)cc1Cl		static acute toxicity test	zebrafish (Brachydanio rerio)	0.694 mg a.i./L, 6 h		mortality	0%
COc1cc(C2C3=C(COC3=O)N(CCO)c3cc4c(cc32)CCC4)cc(OC)c1OC (centres unmarked)			female C57BL/6 mice	intraperitoneal, 100 mg/kg, 48 h, single dose, mean		body weight	22 g
CCN1[C@@H](C(=O)NC23CCC(C(=O)O)(CC2)CC3)[C@H](c2cccc(Cl)c2F)[C@]2(C(=O)Nc3cc(Cl)ccc32)C12CCCCC2			patients with advanced solid tumours	oral, 150 mg		grade ≥3 Thrombocytopenia incidence	50%
Cc1c(COC(=O)[C@@H]2[C@H](/C=C(\Cl)C(F)(F)F)C2(C)C)cccc1-c1ccccc1 (racemic)		measured: CYP2C19	human, age 1 year, recombinant human CYP2C19	0.1 µM		enzyme contribution to clearance	51.7%
C[C@@H]1OC(=O)NN=C1c1ccc(-c2ccc(F)cc2)c(C(F)(F)F)c1		phase I trial, measured: Fatigue all grades	human patients	20 mg loading then 1 mg daily		patients with adverse event	100%
N#C/N=C1\SCCN1Cc1ccc(Cl)nc1			soil	56 days, nominal 10		recovery	0.5%
CC[C@H](C)[C@H](NC(=O)[C@H](Cc1ccccc1)NC(=O)[C@H](CCC(=O)O)NC(=O)[C@H](CCCNC(=N)N)NC(=O)[C@H](C)NC(=O)[C@H](C)NC(=O)[C@H](CCC(N)=O)NC(=O)[C@H](CCC(=O)O)NC(=O)[C@H](CCC(=O)O)NC(=O)[C@H](CC(C)C)NC(=O)[C@H](Cc1ccc(O)cc1)NC(=O)[C@H](CO)NC(=O)[C@H](CO)NC(=O)[C@@H](NC(=O)[C@H](CC(=O)O)NC(=O)[C@H](CO)NC(=O)[C@@H](NC(=O)[C@H](Cc1ccccc1)NC(=O)[C@@H](NC(=O)CNC(=O)[C@H](CCC(=O)O)NC(=O)[C@H](C)NC(=O)CCc1c[nH]cn1)[C@@H](C)O)[C@@H](C)O)C(C)C)C(=O)N[C@@H](C)C(=O)N[C@@H](Cc1c[nH]c2ccccc12)C(=O)N[C@@H](CC(C)C)C(=O)N[C@H](C(=O)N[C@@H](CCCNC(=N)N)C(=O)NCC(=O)N[C@@H](CCCNC(=N)N)C(=O)N[C@@H](CCCCNC(=O)COCCOCCNC(=O)COCCOCCNC(=O)CC[C@H](NC(=O)CCCCCCCCCCCCCCCCC(=O)O)C(=O)O)C(=O)NCC(=O)NCC(=O)N[C@@H](CO)C(=O)N[C@@H](CCCCNc1c(NCCCCCN(O)C(=O)CCC(=O)NCCCCCN(O)C(=O)CCC(=O)NCCCCCN(O)C(C)=O)c(=O)c1=O)C(=O)O)C(C)C [zirconium-89 labelled]			rat, heart	sc, 3 nmol/kg, 24 h, ex vivo		tissue uptake	0.14 %ID/g
CC(C)C[C@H](NC(=O)[C@H](CCCCN)NC(=O)OCC1c2ccccc2-c2ccccc21)C(=O)N[C@H](C(=O)N[C@@H](Cc1ccccc1)C(=O)N[C@@H](Cc1ccccc1)C(=O)N[C@@H](CCCCN)C(=O)NCC(=O)N[C@@H](Cc1ccccc1)C(=O)N[C@@H](C)C(=O)N[C@@H](Cc1c[nH]c2ccccc12)C(=O)N[C@@H](CC(N)=O)C(=O)N[C@H](C(=O)N[C@H]1CSSC[C@@H](C(=O)N[C@@H](Cc2c[nH]cn2)C(=O)N[C@@H](CCCNC(=N)N)C(=O)N[C@@H](CCCNC(=N)N)C(=O)N[C@@H](C)C(=O)N[C@@H](CC(N)=O)C(N)=O)NC(=O)[C@H](C(C)C)NC(=O)[C@H](CCCNC(=N)N)NC(=O)[C@H](C(C)C)NC(=O)CNC(=O)[C@H](CC(N)=O)NC(=O)[C@H](CCCNC(=N)N)NC(=O)[C@H](Cc2ccc(O)cc2)NC(=O)[C@H](C(C)C)NC1=O)C(C)C)C(C)C			ICR mice, blood	intraperitoneal, 10 mg/kg, day 5		mean corpuscular volume	40.7 ± 0.74 fL
CO[C@H]1C[C@@H]2CC[C@@H](C)[C@@](O)(O2)C(=O)C(=O)N2CCCC[C@H]2C(=O)O[C@H]([C@H](C)C[C@@H]2CC[C@@H](OC(=O)NCCOCCOCCOCCOCCOCCOCCOCCOCCC(=O)N3CCc4cc(Cn5nc(-c6ccc7oc(N)nc7c6)c6c(N)ncnc65)ccc4C3)[C@H](OC)C2)C[C@@H](O)[C@H](C)/C=C(\C)[C@@H](O)[C@@H](OC)C(=O)[C@H](C)C[C@H](C)/C=C/C=C/C=C/1C			patients with advanced solid tumours	intravenous, dose not given, grade ≥3		incidence of Fatigue TRAE	3.5%
COc1ccc2nc3cc(Cl)ccc3c(Nc3cc(CN4CCCC4)c(O)c(CN4CCCC4)c3)c2n1			mouse, blood	intraperitoneal, 28 mg/kg		lymphocyte count	5.49 10⁹/L
C[C@H]1CN(C(=O)CC#N)[C@]12CCN(c1ncnc3[nH]ccc13)C2			minipig, male	dermal, 20 mg/kg repeated, 9 months		Cmax at NOAEL	9.9 ng/mL
COc1cc(Nc2ncc(F)c(Nc3ccc4c(n3)NC(=O)C(C)(C)O4)n2)cc(OC)c1OC	TSPO (Homo sapiens, UniProt P30536)	binding				IC50	> 10 µM

Compound	tested on	assay	system	conditions	how to read	measurement	value
COc1ncccc1-c1cnn2ccc(N3CCN(C(=O)OC(C)C)CC3)nc12			mouse, open field test, brain	oral, 60 mg/kg, 60 min		drug concentration	60 µM
C=CC(=O)Nc1cc(Nc2ncc(C(=O)OC(C)C)c(-c3cn(C)c4ccccc34)n2)c(OC)cc1N(C)CCN(C)C			pooled safety population	160 mg once daily, three events		fatal ILD/pneumonitis	1.2%
O=C(O)CCCOc1ccc(F)cc1-c1cc(-c2ccccc2C(F)(F)F)n(-c2ccccc2)n1			female Crl:CD(SD) rats, liver	intravenous, 25 µg/kg, 1 d		organ weight	5.89 ± 0.5 g
CCc1ccc(CC/C=C/c2ccc3c(c2)C(=O)CC3)cc1			Sprague-Dawley rat, female	oral, 30 mg/kg/day, 14 days		Fibrinogen	2.63 g/L
CC(=O)c1c(C)c2cnc(Nc3ccc(C4CCN(CCS(C)(=O)=O)CC4)cn3)nc2n(C2CCCC2)c1=O			human, dose-escalation trial, plasma	oral, 100 mg twice daily, day 1, single dose		AUC(0-inf)	2520 ng·h/mL
NCCCC[C@@H]1NC(=O)[C@@H](Cc2c[nH]c3ccccc23)NC(=O)[C@H](c2ccccc2)NC(=O)[C@@H]2C[C@@H](OC(=O)NCCN)CN2C(=O)[C@H](Cc2ccccc2)NC(=O)[C@H](Cc2ccc(OCc3ccccc3)cc2)NC1=O			healthy volunteers	subcutaneous, 1950 µg twice daily, day 5, 24.00 h		QTcI change from baseline	7.9 ms
COc1ccc([C@@H](O)c2cc(-c3ncnc4cc(N5CCOCC5)ccc34)c(F)cc2Cl)nn1			patients, advanced solid tumours	oral, 200 mg twice daily, treatment-emergent, together with: avelumab	reference: patients	stomatitis incidence	10%
O=S(=O)(Nc1ccccc1)c1ccc(NC(=S)Nc2ccccc2)cc1		measured: RDW	male mouse, blood	oral, 80 mg/kg daily, 14 days		blood cell fraction	16.6%
CCN(CC)CCNC(=O)c1ccc(-c2nc(CN3CCc4ccccc43)c(C)o2)cc1	Vero-E6	CellTiter-Glo ATP		72 h, retest 8-point duplicates	reference: DMSO 0%, hyamine -100%, more negative, more toxic	maximum response	-13.2%
COc1cc2c(Oc3ccc4[nH]c(C)cc4c3F)ccnc2cc1OCC1(N)CC1		measured: grade 1 or 2 gingival bleeding	paediatric high-risk refractory sarcoma	whole group		incidence of adverse event	11.8%
C[C@]1(c2nc3c(C(N)=O)cccc3[nH]2)CCCN1			human patients	together with: topotecan		MTD	10 mg twice daily
O[C@H]1CCCN[C@@H]1CCCn1cnc2c(Cl)c(Cl)ccc21			human	oral, single dose		participants with TEAEs	25%
C[C@H]1CN(c2n[nH]c3nc(N[C@H]4CC[C@H](NS(=O)(=O)CCC(F)(F)F)CC4)ncc23)CCO1	Filamin-C (FLNC, Homo sapiens, UniProt Q14315)	Kinobeads competition, measured: FLNC		0.16 µM, unit not given	reference: vehicle	remaining binding	1.08
O=C(c1ccc(Cl)cc1)N1CCN2C(=O)N(OC(=O)N3CCOc4ccccc43)C(=O)C2C1 (centres unmarked)	ABHD17C (Homo sapiens, UniProt Q6PCB6)	enzyme activity, inhibitor, MS-based ABPP	SW-620 in situ	10 µM, 2 h, 37 °C	reference: compound over DMSO, lower = stronger inhibition	median ratio	1.08
O=C(Nc1ccccc1)C1CCN(C(=O)Oc2cccnc2)CC1		adverse event reporting	healthy women	oral, 20 mg		subjects with Phlebitis adverse event	0%
C[C@H]1COCCN1c1nc(NCc2cccnc2C(F)(F)F)c2cccnc2n1			anaesthetized rat, plasma	intravenous, 10 mg/kg, 5 min		plasma concentration	42000 ng/mL
Clc1ccccc1C1(c2ccnc(-c3ccccc3)n2)CCNCC1	Vero-E6	CellTiter-Glo ATP		72 h, retest 8-point duplicates	reference: DMSO 0%, hyamine -100%, more negative, more toxic	maximum response	-10.2%

Excerpt of the above:
Compound	tested on	assay	system	conditions	how to read	measurement	value
O=S(=O)(Nc1ccccc1)c1ccc(NC(=S)Nc2ccccc2)cc1		measured: RDW	male mouse, blood	oral, 80 mg/kg daily, 14 days		blood cell fraction	16.6%
CCN(CC)CCNC(=O)c1ccc(-c2nc(CN3CCc4ccccc43)c(C)o2)cc1	Vero-E6	CellTiter-Glo ATP		72 h, retest 8-point duplicates	reference: DMSO 0%, hyamine -100%, more negative, more toxic	maximum response	-13.2%
COc1cc2c(Oc3ccc4[nH]c(C)cc4c3F)ccnc2cc1OCC1(N)CC1		measured: grade 1 or 2 gingival bleeding	paediatric high-risk refractory sarcoma	whole group		incidence of adverse event	11.8%
